# Assay results from different studies.
# Parts stem from different laboratories: compare values within a part only.

# Series 1
# Target: Interferon regulatory factor 5, full length, phosphomimetic (IRF5, Homo sapiens, UniProt Q13568-2, residues 1-514, K96S/S451D/S453D/S456D/S462D)
# Method: protein-binding microarray
# Form: double-stranded DNA, one strand shown
# Medium: in vitro
# Tested at: 250 nM
# Notes: 60-bp whole probe
# Together with: salmon DNA 0.4 mg/ml
# Relative to: random background probes
# Direction: higher = stronger binding
# Constant ends, left off below: GCCTAGCAC … GTCTTGATTCGCTTGACGCTGCTG
Oligonucleotide,log fluorescence [z-score]
TTAGGTTCCCTTTTCCTTCAGTGCTAG,0.767
TTAGGACTGCTTCTCCTTAAGTGCTAG,-0.322
TTAGGTTTCGGGTATCGGTTCGTGCTA,9.42
TCATACTTCCCACTGGTACTGTGCTAG,0.0955
ACATCCAAATCCACCATTCAGTGCTAG,0.147
ATATTTCCCAGAACTGGAGTGGTGCTA,-0.0144
TTCGGTTTCGGGTATCGGTTAGTGCTA,9.9
GTGTTACTAAAATTTCATGAAGTGCTA,0.607
GACGGTTTCGACACGGGGGACGTGCTA,5.41
TCAACAATTTCAGATTCCACTGTGCTA,1.11
TTAGGTTCCGACTTTCGGTTAGTGCTA,9.1
TTAGATATCATTATCGATTAGTGCTAG,6.71
GATGATCTCAGTATCGAGACGTGCTAG,1.85
CTTTTATTTTTTTTATTTATGTGCTAG,1.55
TACGGACTGGGTCTCGGGACGTGCTAG,-0.599
GACGGTATTCTTCTCCTGACGTGCTAG,0.266
AAACCATCCTGTATGGATGTGTGCTAG,-0.0922
GACGGTTCCGGTTTCGGCACGTGCTAG,5.05

# Series 2
# Target: Centromere-binding protein 1, full length, N-terminal tag (CBF1, Saccharomyces cerevisiae, UniProt P17106, residues 1-351)
# UniProt P17106, sequence (whole entry, looked up): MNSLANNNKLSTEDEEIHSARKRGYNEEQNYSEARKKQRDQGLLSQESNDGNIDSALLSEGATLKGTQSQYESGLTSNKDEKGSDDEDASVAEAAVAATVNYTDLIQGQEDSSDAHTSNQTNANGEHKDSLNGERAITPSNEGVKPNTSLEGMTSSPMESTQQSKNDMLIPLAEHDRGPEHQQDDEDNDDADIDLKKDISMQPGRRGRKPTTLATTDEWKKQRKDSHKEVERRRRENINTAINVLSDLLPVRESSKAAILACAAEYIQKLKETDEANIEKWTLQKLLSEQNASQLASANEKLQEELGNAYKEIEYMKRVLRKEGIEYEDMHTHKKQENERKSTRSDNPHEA
# Method: protein-binding microarray
# Form: double-stranded DNA, one strand shown
# Medium: in vitro
# Tested at: 0.8 µM
# Notes: whole 60-bp probe, no competitor
# Direction: higher = stronger binding
Oligonucleotide,fluorescence intensity [a.u.]
GAAGTGGAAGCCTGACGCGTGCGCCCTTCTCCTTAGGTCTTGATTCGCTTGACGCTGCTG,523
GAATGCTCAACTCGTTTGATGTTACTTTCTTTGTAGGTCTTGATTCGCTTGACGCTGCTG,475
GAAATTATTGTGTCGTGCATTCCATTAGATTGGTAGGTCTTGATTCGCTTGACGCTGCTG,561
CTATAAATTTGAAATTACGTGTCACTTCGTTTTTTCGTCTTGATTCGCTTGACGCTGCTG,502
CTAATACAGGTTGGTTAGGTGACGTTGGAGAAATTCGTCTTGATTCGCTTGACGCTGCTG,508
GAACAATTTTTTTTACGCATGCAAGATATATGTTAGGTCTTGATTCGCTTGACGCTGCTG,623
CTACATAGAACATATCTGGTGAATGTATATGAGTTCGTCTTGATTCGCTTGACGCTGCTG,512
GAACTCATACATAGCTAGGTGACATGTATACTGTAGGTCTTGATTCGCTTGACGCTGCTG,546
GAAACACAAGTTCATCACCTACCTTCGAAAAATTAGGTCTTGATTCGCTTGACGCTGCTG,522
GAAGAACATCAGCACCACGCCCGCAACGACAAATAGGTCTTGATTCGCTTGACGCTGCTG,549
GAAGCAAGAAAACGTCACATTTTATGGAGAGGCTAGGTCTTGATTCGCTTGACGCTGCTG,572
CTAGTGTGGCTGCACCGCACCACCTTGCAGGTCTTCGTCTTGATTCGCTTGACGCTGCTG,473
TGTACGAAGCTATAGCACGGTGTTATAGTAGTTAGGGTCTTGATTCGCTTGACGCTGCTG,528
GAAACCTGTACTCTACACGTTTATTGTTAAACATAGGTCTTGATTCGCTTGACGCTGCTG,599
CTACACCACATCAACAGGTGAACTCAAAATTACTTCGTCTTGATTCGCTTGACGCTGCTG,526
TGTACGAAGCTATGACGCGTCACTATAGTAGTTAGGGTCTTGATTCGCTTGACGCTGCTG,483
GAAGTAAAAAAGGGTGTGGTGATGGTGAAGATGTAGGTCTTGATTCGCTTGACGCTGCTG,558
GAATTATTGCTCACACAACTGATGTTGCTGACATAGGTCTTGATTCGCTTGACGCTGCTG,577
CTAACTCATTCTAATCATGCGTCCCGTAAATCTTTCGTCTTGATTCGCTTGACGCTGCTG,821
CTAGTGGTATAGGCTCACGCGGCCTGGCCGGAATTCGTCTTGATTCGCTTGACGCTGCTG,524

# Series 3
# Target: Sal-like protein 4, full length isoform B (SALL4, Homo sapiens, UniProt Q9UJQ4-2, residues 1-616)
# Method: universal PBM
# Form: double-stranded DNA, one strand shown
# Medium: in vitro
# Tested at: not given
# Notes: 8-mer, flanks averaged, mean of replicates
# Direction: higher = stronger binding
Oligonucleotide,E-score
GACGTCGC,-0.213
CAATTAGG,0.0092
GCGGACAC,-0.308
TACCATCA,0.0331
GCCGATTA,0.0923
CATCAATG,0.0436
AATGCAGC,-0.148
CACGGAAG,-0.194
ACATTAAA,0.304
ATACCGAT,0.0544
GTCTGCTA,0.0129
AATTTAAG,0.232
GGGATTGA,-0.00848
AGAGCCAG,-0.299
ACGAACAC,-0.0269
ATGTCGTG,-0.0282
AAATAACC,0.168
CATCCGCA,-0.0121
AACGACTG,-0.0973
CCTTATAA,0.24
TAAGATAA,0.138
AAGACATC,-0.0116

# Series 4
# Target: RNA binding protein fox-1 homolog 2, RRM domain, GST-SBP tag (RBFOX2, Homo sapiens, UniProt O43251-10, residues 100-194)
# Method: RNA Bind-n-Seq
# Form: RNA
# Medium: in vitro
# Tested at: 365 nM
# Notes: natural RNA segment, single round, ends assumed
# Relative to: no-protein control
# Direction: higher = stronger binding
# Construct (chain): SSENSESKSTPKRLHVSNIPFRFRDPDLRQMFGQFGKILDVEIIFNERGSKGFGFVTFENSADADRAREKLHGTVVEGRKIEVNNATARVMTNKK
Oligonucleotide,RBNS enrichment (R)
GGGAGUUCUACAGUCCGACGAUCAAGUCUUUGUAGCCAAAUGUGACUAGUGGCUACCAUAUUAGACAGUGCAGAUCUAUACUCAUUCCUUCAAAUACAUUACUCUGUUAAUCUCAAAGUGUGGCCAACUCCCAUGGAAUUCUCGGGUGCCAA,0.626
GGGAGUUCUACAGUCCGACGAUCCCGAAUCUCUUUUUGCUUUCGAACUGCUAGUCAAGUGCGUCCACGAGCUGUUUACUAGGGAUCCCUCAUCUGUCCCUCCGGGACCUGGUGCUGCCUCUACCUGACACUCCUGGAAUUCUCGGGUGCCAA,0.213
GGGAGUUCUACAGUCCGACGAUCUUUUAAAAAAAAUAAAAUUUAACAGUUAUCAGCUGAUAGGCAAGUCAUUGAAAAAGUAAUUUUACGUCUGGCUGGUGAGAGUAAAGUUGGAAAAAUAAUUUUGCAUUUUUUGGAAUUCUCGGGUGCCAA,1.02
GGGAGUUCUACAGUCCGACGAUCGAGAGUGUGCAGAGAGCAAUGAUAGCAAAUAAUGUACGAAUGUUUUUUGCAUUCAAAGGACAUCCACAUCUGUUGGAAGACUUUUAAGUGAGUUUUUGUUCUUAGAUAACUGGAAUUCUCGGGUGCCAA,0.507
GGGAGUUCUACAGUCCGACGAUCGACCCCAUAACGACGUCCCACAAAAUGGAAAUAAAACGCAAAAUCUCUUUAGCAUUGUGUAAAUAAAUCUGGAUGUGUUUAACUUUGUACUGGUAAUUUUCUGUAUAUUUUGGAAUUCUCGGGUGCCAA,1.56
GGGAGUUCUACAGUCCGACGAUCUAGAUCUUGUUCCACCUCUAAUCUUUCCUCGUUGUCUGUUCUUAUGUAUUCUUCAGUUUUCCCACUUCUCAGUGUCUUCACUCUAAGGACUUUUCCUGUCACUGUGAACUUGGAAUUCUCGGGUGCCAA,0.427
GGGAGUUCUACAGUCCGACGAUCUACGUGGCAAUUUUUCAAUGUCAUCUGAAGCCAGCAUUAUCUUCCAAAGAAAUCGAUCUUUUUUUUCUAAAAAAAAAAAAUGCUUUUGCCUUCCCUUCCCUUCCCAUCCGUGGAAUUCUCGGGUGCCAA,0.608
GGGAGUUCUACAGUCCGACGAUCAGCAGUUGGUAUUGUUAACUUUUUAUGAUCAUCAAAAGUACAUAAAAGUCCUAUUAAUCCCCUUACUCUGCUUCCCUUAGCUCUGGUAUACACCAAAAAGAAAUCUUUACUGGAAUUCUCGGGUGCCAA,0.522
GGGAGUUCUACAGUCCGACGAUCUCUGCCACAGUACAAGGUACAGAGUAUGGGCAUCUUAGAGGAAAUGUCUGCUUCCGUCCCCUCGUUCUGGUGAACGUUGGGAGAGAGGAUGAGAGAGACAUUAAAAUUCUUGGAAUUCUCGGGUGCCAA,0.485
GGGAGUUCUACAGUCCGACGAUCCCUACCCUGGCUCUGCCAUCAGCCUUGAAGGGCCUCGAUGAAGCCUUCUCUGGAACCACUCCAGCCCAGCUCCACCUCAGCCUUGGCCUUCACGCUGUGGAAGCAGCCAAUGGAAUUCUCGGGUGCCAA,0.329
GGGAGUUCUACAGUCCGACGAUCUCUUACUUUAGCAGUCACUUAACCUUCUCCAGCAAGGCAGUUGUGGGGUUCACUAGGAUUUAGUGCCUGAUCUUUUUUUUGGGAAGGGGCGGGAAUGAAUGUGUUGGGGCUGGAAUUCUCGGGUGCCAA,1.35
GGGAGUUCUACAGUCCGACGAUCGUAGAGUGGGGGGCCAAAACCUCUGCAGUCCCCGGCAGUGAGCUAUGGACUUUCUUCCCCCUCACAAGGCUGGGGGCCUCCUGCUCUCGUCCCUGGCCCUCCCUGCACAGUGGAAUUCUCGGGUGCCAA,0.465

# Series 5
# Target: Probable WRKY transcription factor 11, DNA-binding domain (WRKY11, Arabidopsis thaliana, UniProt Q9SV15, residues 228-325)
# Method: DNA-protein interaction ELISA
# Form: double-stranded DNA, one strand shown
# Medium: in vitro, bacterial lysate
# Tested at: not given
# Notes: whole dsDNA probe, crude lysate protein
# Relative to: highest signal in screen
# Direction: higher = stronger binding
# Target sequence (chain): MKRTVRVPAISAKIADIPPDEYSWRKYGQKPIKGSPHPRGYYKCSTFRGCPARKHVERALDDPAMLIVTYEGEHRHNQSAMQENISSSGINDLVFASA
Oligonucleotide,relative absorbance
AAAAAAAGGGTCCGGTGCATACATGTAAAA,13.3 % of maximum
AAAAAATGCAACGCTCCTTTCCCGCTAAAA,13.3 % of maximum
AAAAAATCATTTTATTTTGCCTTTCTAAAA,13.5 % of maximum
AAAAAAACGCTCAAGTCTATCAGTAGAAAA,18.4 % of maximum
AAAAAAAGTAGTTACTGCGAAAGTCTAAAA,17.9 % of maximum
AAAAAATCCACGACTCAGCAGCTCTTAAAA,18.2 % of maximum
AAAAAAGGGTATACTCGCAGCCCCTAAAAA,13 % of maximum
AAAAAAGAGTGGTTTATTAATGTATAAAAA,17.6 % of maximum
AAAAAATGGTCGATCCGCATGCAGTTAAAA,13 % of maximum
AAAAAAGGCGTCTGACTGTAACTCGTAAAA,32 % of maximum
AAAAAATCTAGGGGTACCTATTTGGCAAAA,17 % of maximum
AAAAAATTACTATTACACACTTGGGGAAAA,14.7 % of maximum
AAAAAAGTTATTATACCTGATCTCGCAAAA,13 % of maximum
AAAAAACCAGTCTACACCGCTGTAGGAAAA,18.4 % of maximum
AAAAAAGGTCCAGTCCACGTCATCAGAAAA,44.4 % of maximum
AAAAAACTGTCTGTCCTATATCACTTAAAA,17 % of maximum
AAAAAAATCACGGTTCGACCTCCAGCAAAA,17.6 % of maximum
AAAAAAGGGGTCCTTTTCCAATGTCTAAAA,16.4 % of maximum
AAAAAACAGTTCGATGTCACCCCCGCAAAA,14.1 % of maximum
AAAAAATTGGTTCTCATTTCTACTTCAAAA,13.8 % of maximum
AAAAAACATCGCTGTCGTTGACGTTGAAAA,90.8 % of maximum
AAAAAAATGCGCCCTTTCTGACATAAAAAA,15.6 % of maximum
AAAAAACGCCTTATGCCTCCCGCTCGAAAA,18.7 % of maximum
AAAAAATGACCAGGCCTCGAGCAAAAA,17.9 % of maximum
AAAAAATTTTGTGGTGTTTCGCCACCAAAA,19.6 % of maximum

# For quick reference, copied from above (series 3):
Oligonucleotide,E-score
ACATTAAA,0.304
ATACCGAT,0.0544
GTCTGCTA,0.0129
AATTTAAG,0.232
GGGATTGA,-0.00848
AGAGCCAG,-0.299
ACGAACAC,-0.0269
